Published values pooled from the literature.
Lines come from different studies, so protocols differ.

Structure (SMILES) | assay | test system | setting | how to read | endpoint | value
COc1ccc(F)cc1C(=O)NCc1ccc(-c2nn([C@@H](C)C(F)(F)F)c(N)c2C(N)=O)cc1 |  | human, plasma | oral, 200 mg once daily, together with: oral midazolam |  | tmax | 3 h
N.N.O=C([O-])C1(C(=O)[O-])CCC1.[Pt+2] | refers to: non-protein-bound platinum | human, plasma ultrafiltrate | dose not given, median |  | Tmax | 0.6 h
Cc1nnc2n1-c1ccc(Cl)cc1C(c1ccccc1)=NC2 |  | human female | day 22 | baseline: day 0 | Tmax change | 24.5%
CNC(=O)n1ccc2cc(Oc3ccnc(NC(=O)c4ccc(C5CCN(CCO)CC5)cc4)c3)c(OCCOC)cc21 |  | healthy human, plasma | oral, 35 mg, together with: high-fat meal | baseline: fasted | tmax delay | ~1 h
C=C(C)[C@@H]1CC[C@]2(NCCN3CCS(=O)(=O)CC3)CC[C@]3(C)[C@H](CC[C@@H]4[C@@]5(C)CC=C(C6=CC[C@@](COc7ncccc7C#N)(C(=O)O)CC6)C(C)(C)[C@@H]5CC[C@]43C)[C@@H]12 |  | human, fed | oral, 100 mg powder in bottle, median |  | Tmax | 9 h
O=C(O)C(O)(c1cccs1)c1cccs1 | refers to: metabolite | human, plasma | oral, 10 mg once daily, 5 days, median |  | Tmax | 5.5 h
CC(=O)c1c(C)c2cnc(Nc3ccc(C4CCN(CCS(C)(=O)=O)CC4)cn3)nc2n(C2CCCC2)c1=O |  | human patients, plasma | oral, 75 mg twice daily, day 1 single dose, together with: fulvestrant |  | Tmax | 1.25 h
Cn1nc(NS(C)(=O)=O)c2c(Cl)ccc(-n3c([C@H](Cc4cc(F)cc(F)c4)NC(=O)Cn4nc(C(F)F)c5c4C(F)(F)[C@@H]4C[C@H]54)nc4nc(OCCC(F)(F)F)ccc4c3=O)c21 |  | human, plasma | oral, 200 mg single dose, tablet, median |  | tmax | 24 h
OCc1ncc2n1-c1ccc(Cl)cc1C(c1ccccc1F)=NC2 |  | human, plasma | 7.5 mg midazolam, day 12, median, together with: amenamevir 400 mg |  | Tmax | 0.5 h
COc1ccc2c(c1)[C@]13CCCC[C@@H]1[C@H](C2)N(C)CC3 |  | human female | day 22 | baseline: day 0 | Tmax change | 22.4%
C[C@H](NC(=O)c1c(C(F)F)nn(C)c1Oc1cccc(C(F)(F)F)c1)c1ccc(C(=O)O)cc1 |  | human, plasma | 125 mg, cycle 1 day 8, median |  | Tmax | 4.7 h
C[C@]1(CO)Cc2ncn(-c3ccc(C#N)c(Cl)c3)c2C(=O)O1 |  | human, plasma | 2 mg single dose, median |  | tmax | 0.5 h

Repeated from above:
Structure (SMILES) | assay | test system | setting | how to read | endpoint | value
Cn1nc(NS(C)(=O)=O)c2c(Cl)ccc(-n3c([C@H](Cc4cc(F)cc(F)c4)NC(=O)Cn4nc(C(F)F)c5c4C(F)(F)[C@@H]4C[C@H]54)nc4nc(OCCC(F)(F)F)ccc4c3=O)c21 |  | human, plasma | oral, 200 mg single dose, tablet, median |  | tmax | 24 h
